Experimental data pooled from the literature.
Protocols differ between the studies behind these lines.
Target: Serine/threonine-protein kinase Sgk1 (SGK1, Homo sapiens, UniProt O00141)
Sequence (O00141 1-431, as in one of the studies): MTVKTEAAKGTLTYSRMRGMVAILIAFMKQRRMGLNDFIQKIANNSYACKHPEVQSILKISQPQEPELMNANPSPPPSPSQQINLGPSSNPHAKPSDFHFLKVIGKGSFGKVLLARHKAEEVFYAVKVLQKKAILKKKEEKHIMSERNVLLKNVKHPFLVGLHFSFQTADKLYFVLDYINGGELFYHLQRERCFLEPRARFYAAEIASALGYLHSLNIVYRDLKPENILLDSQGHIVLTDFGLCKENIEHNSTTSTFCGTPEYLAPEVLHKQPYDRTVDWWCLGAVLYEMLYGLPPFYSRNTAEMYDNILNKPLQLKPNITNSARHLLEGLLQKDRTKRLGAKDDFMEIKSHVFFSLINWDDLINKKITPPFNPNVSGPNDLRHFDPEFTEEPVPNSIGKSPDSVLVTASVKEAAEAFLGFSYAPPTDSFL

For `COc1cc(-c2cncc3c2CN(C)Cc2cc(N4CCNCC4)ccc2-3)cc(OC)c1OC`, the remaining activity was 118% (kinase activity; 1 µM, human enzyme, together with: ATP 10 µM; baseline: DMSO control).
For `O=C1NC(=O)/C(=C/c2ccc(-c3ccc(F)cc3O)o2)S1`, the remaining activity was 59% (enzyme activity; 10 µM).
With `CC(C)[C@H](NC(=O)c1cc(-c2cnn3cc(-c4ccc(OCCN5CCCCC5)cc4)cnc23)cs1)C(F)(F)F` the relative inhibition was 0.0455 (radiometric kinase; 15 nM; baseline: SGK1 over ULK1).
`O=C(NC1CCC1)c1ccc2nc(-c3cccc(NS(=O)(=O)NCCN4CCCCC4)c3)cn2c1` has a remaining activity of 99% (enzyme activity; 10 µM).
For `c1cnc2ccc(Nc3nc(NC4CC4)c4nc[nH]c4n3)cc2c1`, the remaining activity was 95% (kinase activity, inhibitor, SelectScreen kinase profiling; 1 µM; baseline: control).
With `Cc1cc(Nc2cc(N3CCN(C)CC3)nc(Sc3ccc(NC(=O)C4CC4)cc3)n2)[nH]n1` the remaining activity was 104% (kinase activity, KinaseProfiler; 0.03 µM, species human; baseline: control).
`CNc1ncc2c(/C=C/C(=O)N3CCC(OC)CC3)nn(Cc3cccc(C(F)(F)F)c3)c2n1` has a remaining activity of 92% (kinase activity, inhibitor; 1 µM; baseline: untreated control).
The remaining activity of `COc1cc(F)ccc1-c1ncnc(Nc2cccc(C[S@](C)(=N)=O)c2)n1` is reported as 91% (kinase activity; 10 µM, together with: 10 µM ATP).

Excerpt of the above:
For `COc1cc(-c2cncc3c2CN(C)Cc2cc(N4CCNCC4)ccc2-3)cc(OC)c1OC`, the remaining activity was 118% (kinase activity; 1 µM, human enzyme, together with: ATP 10 µM; baseline: DMSO control).
